Measurements collected from several papers.
tmk: Thymidylate kinase (tmk, Mycobacterium tuberculosis, UniProt P9WKE1)
Chain of UniProt P9WKE1 (whole entry, looked up): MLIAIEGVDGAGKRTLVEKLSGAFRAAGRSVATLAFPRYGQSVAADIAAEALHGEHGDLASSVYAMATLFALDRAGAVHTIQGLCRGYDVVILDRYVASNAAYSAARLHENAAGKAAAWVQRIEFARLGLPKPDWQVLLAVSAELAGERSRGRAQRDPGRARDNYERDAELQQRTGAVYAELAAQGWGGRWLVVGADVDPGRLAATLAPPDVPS
PFF0160c: Dihydroorotate dehydrogenase (quinone), mitochondrial (PFF0160c, Plasmodium falciparum, UniProt Q08210)
Chain of UniProt Q08210 (whole entry, looked up): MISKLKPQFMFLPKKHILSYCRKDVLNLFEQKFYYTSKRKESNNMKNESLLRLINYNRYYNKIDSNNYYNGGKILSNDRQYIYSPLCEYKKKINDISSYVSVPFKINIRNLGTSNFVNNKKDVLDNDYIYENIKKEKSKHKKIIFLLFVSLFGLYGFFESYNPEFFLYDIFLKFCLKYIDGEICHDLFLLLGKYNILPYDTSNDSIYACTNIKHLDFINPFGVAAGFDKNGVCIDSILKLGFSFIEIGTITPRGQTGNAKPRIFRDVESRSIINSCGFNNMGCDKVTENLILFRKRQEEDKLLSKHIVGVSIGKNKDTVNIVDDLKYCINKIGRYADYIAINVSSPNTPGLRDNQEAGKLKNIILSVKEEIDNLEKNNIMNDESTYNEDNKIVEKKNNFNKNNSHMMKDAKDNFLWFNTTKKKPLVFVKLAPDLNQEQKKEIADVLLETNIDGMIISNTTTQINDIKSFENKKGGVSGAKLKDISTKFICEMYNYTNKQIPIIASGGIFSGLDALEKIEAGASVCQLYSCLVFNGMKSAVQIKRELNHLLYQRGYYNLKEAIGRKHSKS
Htr2a: 5-hydroxytryptamine receptor 2A (Htr2a, Mus musculus, UniProt P35363)
Chain of UniProt P35363 (whole entry, looked up): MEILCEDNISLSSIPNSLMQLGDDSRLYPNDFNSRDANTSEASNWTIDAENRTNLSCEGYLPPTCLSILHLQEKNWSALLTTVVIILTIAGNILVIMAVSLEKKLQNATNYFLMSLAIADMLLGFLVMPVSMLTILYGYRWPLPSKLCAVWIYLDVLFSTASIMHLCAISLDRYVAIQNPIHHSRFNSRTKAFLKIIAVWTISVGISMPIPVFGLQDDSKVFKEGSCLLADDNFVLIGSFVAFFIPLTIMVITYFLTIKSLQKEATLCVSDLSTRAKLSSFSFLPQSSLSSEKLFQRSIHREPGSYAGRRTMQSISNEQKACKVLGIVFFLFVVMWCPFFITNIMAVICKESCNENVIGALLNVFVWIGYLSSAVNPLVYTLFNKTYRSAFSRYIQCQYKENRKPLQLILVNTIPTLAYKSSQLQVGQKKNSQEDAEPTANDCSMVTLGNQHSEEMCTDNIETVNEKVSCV
TMPRSS2: Transmembrane protease serine 2 (TMPRSS2, Homo sapiens, UniProt O15393)
Chain of UniProt O15393 (whole entry, looked up): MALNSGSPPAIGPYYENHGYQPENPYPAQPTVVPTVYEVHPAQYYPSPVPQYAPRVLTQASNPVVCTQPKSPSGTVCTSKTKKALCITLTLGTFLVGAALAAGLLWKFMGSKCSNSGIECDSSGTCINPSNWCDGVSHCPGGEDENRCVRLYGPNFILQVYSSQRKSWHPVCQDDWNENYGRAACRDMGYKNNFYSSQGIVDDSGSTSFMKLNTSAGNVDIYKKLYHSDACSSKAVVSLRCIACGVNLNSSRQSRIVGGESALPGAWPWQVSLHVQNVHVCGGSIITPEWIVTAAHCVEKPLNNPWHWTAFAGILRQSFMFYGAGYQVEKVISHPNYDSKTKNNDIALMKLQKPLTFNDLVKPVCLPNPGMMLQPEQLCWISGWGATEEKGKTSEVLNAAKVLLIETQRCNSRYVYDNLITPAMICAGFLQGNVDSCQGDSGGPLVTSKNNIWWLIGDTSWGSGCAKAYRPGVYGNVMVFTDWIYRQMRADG
Chain of UniProt Q8NI60 (whole entry, looked up): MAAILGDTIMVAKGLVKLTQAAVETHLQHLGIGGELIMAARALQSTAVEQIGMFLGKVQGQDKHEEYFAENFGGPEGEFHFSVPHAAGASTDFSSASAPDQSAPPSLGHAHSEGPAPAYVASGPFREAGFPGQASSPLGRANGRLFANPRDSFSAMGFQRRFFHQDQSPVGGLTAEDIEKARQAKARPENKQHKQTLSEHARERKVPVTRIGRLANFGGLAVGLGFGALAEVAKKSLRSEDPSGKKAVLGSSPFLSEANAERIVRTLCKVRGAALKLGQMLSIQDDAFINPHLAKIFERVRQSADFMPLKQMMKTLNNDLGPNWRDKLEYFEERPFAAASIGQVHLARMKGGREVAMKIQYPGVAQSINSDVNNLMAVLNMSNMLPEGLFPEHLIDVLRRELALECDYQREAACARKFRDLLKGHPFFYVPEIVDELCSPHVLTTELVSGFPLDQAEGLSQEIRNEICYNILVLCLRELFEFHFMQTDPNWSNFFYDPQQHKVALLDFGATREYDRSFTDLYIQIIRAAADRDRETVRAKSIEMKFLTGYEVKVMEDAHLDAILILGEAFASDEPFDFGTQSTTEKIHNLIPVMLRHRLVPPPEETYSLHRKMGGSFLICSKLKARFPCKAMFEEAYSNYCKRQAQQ
Chain of UniProt P10721 (whole entry, looked up): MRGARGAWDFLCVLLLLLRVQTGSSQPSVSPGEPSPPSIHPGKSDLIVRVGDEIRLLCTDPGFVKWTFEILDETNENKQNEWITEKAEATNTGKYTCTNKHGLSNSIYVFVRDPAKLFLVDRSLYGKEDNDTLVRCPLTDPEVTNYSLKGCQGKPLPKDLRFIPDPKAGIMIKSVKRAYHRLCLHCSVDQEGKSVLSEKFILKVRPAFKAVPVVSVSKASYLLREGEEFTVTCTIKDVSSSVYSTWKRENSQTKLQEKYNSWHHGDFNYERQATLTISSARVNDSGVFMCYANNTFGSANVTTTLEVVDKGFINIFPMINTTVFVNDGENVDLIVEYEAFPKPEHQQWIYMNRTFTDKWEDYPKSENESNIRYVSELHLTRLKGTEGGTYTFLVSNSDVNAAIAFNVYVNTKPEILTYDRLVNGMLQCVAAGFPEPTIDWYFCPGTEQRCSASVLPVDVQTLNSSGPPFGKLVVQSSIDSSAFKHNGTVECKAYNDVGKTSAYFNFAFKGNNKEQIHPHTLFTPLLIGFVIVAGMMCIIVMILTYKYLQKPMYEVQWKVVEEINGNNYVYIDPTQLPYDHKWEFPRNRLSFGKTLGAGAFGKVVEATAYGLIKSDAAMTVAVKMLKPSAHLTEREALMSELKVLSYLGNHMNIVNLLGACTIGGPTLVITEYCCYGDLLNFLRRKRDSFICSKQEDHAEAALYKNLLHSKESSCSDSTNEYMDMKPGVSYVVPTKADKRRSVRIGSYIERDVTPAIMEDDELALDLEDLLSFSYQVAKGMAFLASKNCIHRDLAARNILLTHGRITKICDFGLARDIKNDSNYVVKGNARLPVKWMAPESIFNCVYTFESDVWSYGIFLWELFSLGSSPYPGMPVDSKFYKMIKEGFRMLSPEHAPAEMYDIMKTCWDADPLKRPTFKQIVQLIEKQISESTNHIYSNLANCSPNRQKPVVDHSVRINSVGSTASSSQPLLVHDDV
Chain of UniProt P42680 (whole entry, looked up): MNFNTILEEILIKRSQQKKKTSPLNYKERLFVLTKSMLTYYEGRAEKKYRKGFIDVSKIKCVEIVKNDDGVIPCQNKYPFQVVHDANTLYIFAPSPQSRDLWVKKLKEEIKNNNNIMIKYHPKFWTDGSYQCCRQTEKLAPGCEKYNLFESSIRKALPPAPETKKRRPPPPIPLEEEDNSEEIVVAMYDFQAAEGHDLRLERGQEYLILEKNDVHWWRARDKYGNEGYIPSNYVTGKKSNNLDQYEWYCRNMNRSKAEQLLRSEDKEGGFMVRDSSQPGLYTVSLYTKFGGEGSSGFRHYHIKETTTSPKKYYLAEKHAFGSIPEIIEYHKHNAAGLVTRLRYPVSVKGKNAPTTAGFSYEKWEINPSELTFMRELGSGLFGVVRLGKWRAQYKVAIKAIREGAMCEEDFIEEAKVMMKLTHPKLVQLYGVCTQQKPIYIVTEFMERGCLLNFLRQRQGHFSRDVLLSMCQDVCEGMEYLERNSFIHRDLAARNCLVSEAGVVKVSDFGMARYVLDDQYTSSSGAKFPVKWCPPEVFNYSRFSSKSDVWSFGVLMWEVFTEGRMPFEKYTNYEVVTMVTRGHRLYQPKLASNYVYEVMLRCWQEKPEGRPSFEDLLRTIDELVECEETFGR
Chain of UniProt Q8IYT8 (whole entry, looked up): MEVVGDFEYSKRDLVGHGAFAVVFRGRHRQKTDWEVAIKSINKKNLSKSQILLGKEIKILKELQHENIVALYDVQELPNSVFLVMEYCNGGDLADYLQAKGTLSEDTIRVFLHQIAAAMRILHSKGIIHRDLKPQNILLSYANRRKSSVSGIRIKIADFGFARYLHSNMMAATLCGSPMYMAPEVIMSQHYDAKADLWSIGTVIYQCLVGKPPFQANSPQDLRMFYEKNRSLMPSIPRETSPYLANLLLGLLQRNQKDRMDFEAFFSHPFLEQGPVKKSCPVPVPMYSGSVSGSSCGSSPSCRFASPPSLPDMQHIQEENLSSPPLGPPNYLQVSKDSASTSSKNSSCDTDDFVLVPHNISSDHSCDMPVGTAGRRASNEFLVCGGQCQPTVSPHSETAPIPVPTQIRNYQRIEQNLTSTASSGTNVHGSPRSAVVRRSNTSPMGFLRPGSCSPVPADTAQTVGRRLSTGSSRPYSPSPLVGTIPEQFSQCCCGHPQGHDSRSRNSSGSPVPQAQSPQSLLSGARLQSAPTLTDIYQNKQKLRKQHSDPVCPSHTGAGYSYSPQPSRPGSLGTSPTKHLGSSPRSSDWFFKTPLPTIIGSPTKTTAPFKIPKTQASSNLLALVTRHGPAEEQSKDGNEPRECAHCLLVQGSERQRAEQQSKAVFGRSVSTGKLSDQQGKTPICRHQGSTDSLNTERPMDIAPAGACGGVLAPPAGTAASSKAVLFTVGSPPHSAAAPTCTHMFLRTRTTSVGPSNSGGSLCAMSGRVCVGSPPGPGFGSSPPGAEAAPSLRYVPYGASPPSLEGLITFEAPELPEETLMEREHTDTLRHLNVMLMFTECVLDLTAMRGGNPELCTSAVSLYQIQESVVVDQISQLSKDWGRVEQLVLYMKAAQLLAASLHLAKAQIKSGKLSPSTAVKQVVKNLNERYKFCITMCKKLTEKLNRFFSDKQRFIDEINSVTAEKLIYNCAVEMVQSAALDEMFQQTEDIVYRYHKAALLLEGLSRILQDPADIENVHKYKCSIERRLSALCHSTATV

CCOC(=O)C1=C(C)NC(=NN=c2[nH]c3ccccc3[nH]c2=O)NC1c1ccc(F)cc1 (centres unmarked)
inhibition (tmk; enzyme activity, inhibitor, absorbance; 0.1 µg/mL): 46.1%

Cl.O=C(N[C@H]1CC[C@@]2(O)[C@H]3Cc4ccc(O)c5c4[C@@]2(CCN3CC2CC2)[C@H]1O5)c1ccc(C(F)F)s1
Emax (HEK293; GTPγS binding, agonist, radiometric): 27.2%

COCc1ccccc1C(=O)NCCOc1cc(C)cc(C)c1
IC50 (PFF0160c; enzyme activity, inhibitor, absorbance): 235 nM

Cl.O=C(N[C@H]1CC[C@@]2(O)[C@H]3Cc4ccc(O)c5c4[C@@]2(CCN3CC2CC2)[C@H]1O5)c1ccc([N+](=O)[O-])s1
Emax (HEK293; GTPγS binding, agonist, radiometric): 30.7%

COc1cc(CCN)c(OC)cc1C#N
Emax (Htr2a; G protein activation, agonist, BRET): 89%

Cl.NS(=O)(=O)c1ccc(C(=O)N[C@H]2CC[C@@]3(O)[C@H]4Cc5ccc(O)c6c5[C@@]3(CCN4CC3CC3)[C@H]2O6)s1
Emax (HEK293; GTPγS binding, agonist, radiometric): 31.7%

N=C(N)NCCC[C@H](NC(=O)OCc1ccccc1)C(=O)N[C@@H](CCC(N)=O)C(=O)N[C@@H](Cc1ccccc1)C(=O)N[C@H](CCCNC(=N)N)C(=O)c1nccs1
activity vs control (TMPRSS2; enzyme activity, inhibitor; 1 nM): 24%

COc1cc(CCNC(C)c2ccccc2O)c(OC)cc1C#N (centres unmarked)
Emax (HTR2C (Homo sapiens, UniProt P28335); G protein activation, agonist, BRET): 123%

Cl.NC(=O)c1ccc(C(=O)N[C@H]2CC[C@@]3(O)[C@H]4Cc5ccc(O)c6c5[C@@]3(CCN4CC3CC3)[C@H]2O6)s1
Emax (HEK293; GTPγS binding, agonist, radiometric): 44%

CCc1cc2c(cc1CC)CC(NC[C@@H](O)c1ccc(O)c3[nH]c(=O)ccc13)C2
IC50 (PFF0160c; enzyme activity, inhibitor, absorbance): 3940 nM

COc1cc(CCN)c(OC)cc1Br
Emax (Htr2a; G protein activation, agonist, BRET): 97%

CC(=O)N[C@@H](CCCNC(=N)N)C(=O)N[C@@H](CCC(N)=O)C(=O)N[C@@H](Cc1ccccc1)C(=O)N[C@H](CCCNC(=N)N)C(=O)c1nccs1
activity vs control (TMPRSS2; enzyme activity, inhibitor; 1 nM): 41%

[2H]c1c([2H])c([C@]2([2H])CCCN2C(=O)C(C)(C)Oc2ccc3cn[nH]c3c2)c([2H])c([2H])c1C([2H])([2H])[2H]
remaining binding (COQ8A (Homo sapiens, UniProt Q8NI60); binding, competition with immobilised ligand; 1 µM): 82%

Cc1nn(C)cc1-c1nc2c(N3CCN(Cc4ccc(Cl)cc4)CC3)c(Cl)cnc2[nH]1
remaining binding (Tyrosine-protein kinase ABL1, phosphorylated (ABL1, Homo sapiens, UniProt P00519, Y253F); binding, competition with immobilised ligand; 1 µM): 100%

Nc1ncc(-c2nc(N3CCOCC3)nc(N3CCOCC3)n2)c(C(F)F)n1
remaining binding (Mast/stem cell growth factor receptor Kit, autoinhibited (KIT, Homo sapiens, UniProt P10721); binding, competition with immobilised ligand; 10 µM): 4.8%

COc1ncccc1-c1cnn2ccc(N3CCN(C(=O)OC(C)C)CC3)nc12
remaining binding (TEC (Homo sapiens, UniProt P42680); binding, competition with immobilised ligand; 1 µM): 90%

C#Cc1n[nH]c2c(-c3cn([C@@H](C)c4ccccn4)c(=O)[nH]c3=O)cc(F)cc12
inhibition (ULK2 (Homo sapiens, UniProt Q8IYT8); enzyme activity, inhibitor; 0.1 µM): -2.7%

N=C(N)NCCC[C@H](NC(=O)[C@H](Cc1ccccc1)NC(=O)CCCC(N)=O)C(=O)c1nc2ccccc2s1
activity vs control (TMPRSS2; enzyme activity, inhibitor; 1 nM): 58%

COc1cc(CCNCc2ccccc2OC)c(OC)cc1Br
Emax (Htr2c (Mus musculus, UniProt P34968); G protein activation, agonist, BRET): 107%

CCOC(=O)C1=C(C)NC(=O)NC1c1ccc([N+](=O)[O-])o1 (centres unmarked)
inhibition (tmk; enzyme activity, inhibitor, absorbance; 10 µg/mL): 81.3%

Repeated from above:
Cl.NS(=O)(=O)c1ccc(C(=O)N[C@H]2CC[C@@]3(O)[C@H]4Cc5ccc(O)c6c5[C@@]3(CCN4CC3CC3)[C@H]2O6)s1
Emax (HEK293; GTPγS binding, agonist, radiometric): 31.7%

[2H]c1c([2H])c([C@]2([2H])CCCN2C(=O)C(C)(C)Oc2ccc3cn[nH]c3c2)c([2H])c([2H])c1C([2H])([2H])[2H]
remaining binding (COQ8A (Homo sapiens, UniProt Q8NI60); binding, competition with immobilised ligand; 1 µM): 82%

COc1cc(CCN)c(OC)cc1Br
Emax (Htr2a; G protein activation, agonist, BRET): 97%
